Assay results from different studies.
Several values in a cell are separate wells, animals, samples, runs or records. Numbers after ± are the reported error.

With `O=C1NC2(CC2)COc2ncc(F)cc2[C@H]2COCCN2c2ccn3ncc1c3n2` the revertant colonies was 422 ± 10 revertants/plate (Salmonella typhimurium; Ames test; TA102; 500 µg/plate, 48 h, added: rat liver S9).
For `CCCCCC(=O)N[C@@H](Cc1ccccc1)C(=O)N[C@@H](CCCC)C(=O)N[C@@H](CC(C)C)C(=O)[C@@]1(C)CO1`, the selectivity index was less than 1 (Trypanosoma brucei brucei; HepG2 cells, Lister 427; baseline: HepG2 CC50 over T. brucei EC50).
`CC(C)(C)NCC(SS(=O)(=O)O)c1ccccc1` (stereo not drawn): “body weight decrease” 2.47% (Schistosoma mansoni; perfusion day 52; infected Swiss Webster mice; 600 mg/kg single dose, dosed day 7 post-infection; baseline: vehicle control).
`CCCCCC(=O)NC(CC(=O)N(CC)CC)C(=O)NC(Cc1ccc(F)cc1)C(=O)NC(Cc1ccc(F)cc1F)C(=O)C1(C)CO1` (stereo not drawn) has a selectivity index of > 80 and 155 (Trypanosoma brucei brucei; HepG2 cells, Lister 427; baseline: HepG2 CC50 over T. brucei EC50).
`CCN(CC)CC#CCNc1ccnc2cc(Cl)ccc12` has a mean revertants of 82 revertants/well (Salmonella typhimurium; mini-Ames test; TA102; 250.0 µg/well, with rat liver S9).
The selectivity index of `CCCCCC(=O)N[C@@H](Cc1ccc(NC(=O)OC(C)(C)C)cc1)C(=O)N[C@@H](CCCC)C(=O)N[C@@H](Cc1ccccc1)C(=O)[C@@]1(C)CO1` is reported as less than 1 (Trypanosoma brucei brucei; HepG2 cells, Lister 427; baseline: HepG2 CC50 over T. brucei EC50).
Under “revertant fold increase”, `CC(C)OCCOCc1ccc(OCC(O)CN(N=O)C(C)C)cc1` (stereo not drawn) is recorded as 0.9 fold (Salmonella typhimurium; Ames test; TA98; 500 µg/plate, 30 % hamster S9; baseline: solvent control).
For `O=C1C2CC3CC1CC(C(=O)N1CCN(c4ccc([N+](=O)[O-])c5ncccc45)CC1)(C3)C2`, “revertant fold increase” read 0.9 (Salmonella typhimurium; Ames test; TA100; 0.13 µg/well, with S9; baseline: vehicle).
`COC(=O)Nc1nc2cc(C(O)c3ccc(F)cc3)ccc2[nH]1` (stereo not drawn) gave a revertants of 15 revertants per plate (Salmonella typhimurium; Ames preincubation test; TA1537; 875.0 µg per plate, 3 days, without S9, precipitation).

A few entries again:
With `O=C1NC2(CC2)COc2ncc(F)cc2[C@H]2COCCN2c2ccn3ncc1c3n2` the revertant colonies was 422 ± 10 revertants/plate (Salmonella typhimurium; Ames test; TA102; 500 µg/plate, 48 h, added: rat liver S9).
